Experimental data of several laboratories.
MAPK9: Mitogen-activated protein kinase 9 (MAPK9, Homo sapiens, UniProt P45984)

Compound | target | test | setting | how to read | quantity | result
C=CC(=O)Nc1cccc(-c2cnc3[nH]cc(C(=O)NC(C)(C)C)c3n2)c1 | MAPK9 | enzyme activity, inhibitor | 0.1 µM |  | inhibition | -6%
NC(=O)C[C@H]1CCc2sc3ncnc(O[C@H]4CC[C@H](N5CCOCC5)CC4)c3c21 | MAPK9 | enzyme activity, inhibitor | 10 µM |  | inhibition | -4%
COc1ccc(C(=O)/C=C/c2ccccc2-c2c[nH]c3ccc(C#N)cc23)c(O)c1 | MAPK9 | enzyme activity, inhibitor | 20 µM |  | inhibition | -1%
Cc1cccc(O[C@H]2CCC[C@@H](C(C)CNCc3ccncc3)C2)c1 (relative stereo) | MAPK9 | kinase activity, kinome panel screening | 10 µM |  | inhibition | -1%
Cc1[nH]nc2c1N=C(c1ccccc1Cl)c1cnc(N3CCOCC3)cc1N2 | MAPK9 | enzyme activity, inhibitor | 0.5 µM |  | inhibition | 8.7%
Cc1cccc(-c2ccc3nc(NC(=O)C4CCOCC4)nn3c2)c1 | MAPK9 | enzyme activity, Dundee kinase panel | 10 µM |  | remaining activity | 82%
Nc1ncc2c(n1)-c1c([nH]c3ccc(C4=CCOCC4)cc13)CCC2 | MAPK9 | binding, competition with immobilised ligand | 1 µM |  | remaining binding | 97%
CN1CC[C@@H](COc2cnc(C#N)cc2-c2ccn3nc(NC(=O)C4CC4)cc3c2)C1 | Mitogen-activated protein kinase 9, isoform alpha2 (MAPK9, Homo sapiens, UniProt P45984) | kinase activity, inhibitor | 1 µM, added: ATP 45 µM |  | inhibition | -4%
COC(=O)[C@@]1(C)C=C(C(=O)Nc2cccc(C(=O)Nc3ccc(Nc4nccc(-c5cccnc5)n4)c(C)c3)c2)C(=O)CC1 | MAPK9 | enzyme activity, inhibitor, radiometric | 1 µM |  | remaining activity | 7%
CNC(=O)C1CCN(c2cc(C)c(F)cc2NC(=O)c2ccc(-c3cc(O)ccc3C)c(C)c2)CC1 | MAPK9 | binding, competition with immobilised ligand | 1 µM |  | remaining binding | 84%
COc1c(Cl)cccc1Nc1c(-c2ccncc2C#C[C@@]2(C)CCCN2C(=O)/C=C/CN(C)C)[nH]c2c1C(=O)NCC2 | MAPK9 | cell-free assay, competition with immobilised ligand | 3 µM |  | remaining binding | 0%
COc1cc(Nc2nccc(-c3cnn4nc(OC)ccc34)n2)cc(C(F)(F)F)c1 | MAPK9 | binding, competition with immobilised ligand | 1 µM |  | remaining binding | 89%
CC(=O)N1c2ccc(-c3ccc(CNC(=O)c4cn5cc(-c6cnc(N)nc6)nc(N6CCOCC6)c5n4)cc3)cc2CC[C@@H]1C | MAPK9 | KINOMEscan | 10 µM |  | remaining binding | 63%
Cc1cnc2nc1Nc1cccc(c1)COC/C=C/COCc1cc(ccc1OCCN1CCOCC1)N2 | MAPK9 | cell-free assay | 0.1 µM |  | remaining signal | 60%
CN1CCN(Cc2ccc(NC(=O)c3cccc(C#Cc4cnc(N)c5ncccc45)c3)cc2C(F)(F)F)CC1 | MAPK9 | cell-free assay, competition with immobilised ligand | 50 nM |  | remaining binding | 42%
CC(C)=CC1OC(C)(C)C2C=C3C(=O)C(Cl)=CC(O)C3C3C(O)C4OC4C(=O)C132 (stereo not drawn) | MAPK9 | cell-free assay, competition with immobilised ligand | 10 µM |  | remaining binding | 83%
C#CCOC(=O)[C@]1(C)C=C(C(=O)Nc2cccc(C(=O)Nc3ccc(C)c(Nc4nccc(-c5cccnc5)n4)c3)c2)C(=O)CC1 | MAPK9 | enzyme activity, inhibitor | 0.5487 µM, unit not given | baseline: vehicle | remaining activity | 0.246
COc1ccc(NC(=O)Nc2ccc3c(c2)C(=O)N(C(C)CO)CC(C)C(CN(C)Cc2ccc4c(c2)OCO4)O3)cc1 (stereo not drawn) | MAPK9 | binding, competition with immobilised ligand | 10 µM |  | remaining binding | 89%
CNC1C[S+]2CC[S+]3CC[S+](C1)[Ru-4]321([N]=C=S)[n]2c3ccc(OC)cc3c3c4c(c5cc(F)c[n+]1c5c32)C(=O)NC4=O (stereo not drawn) | MAPK9 | KinomeScan | 0.1 µM | baseline: untreated | remaining binding | 96%
Cc1cc(NC(=O)c2cccc(N)c2)ccc1Nc1nccc(-c2cccnc2)n1 | MAPK9 | enzyme activity, inhibitor | 0.5487 µM, unit not given | baseline: vehicle | remaining activity | 0.765
Cc1ccc(-c2c(/C=C(\C#N)C(=O)NC(C)C)n(CCCO)c3ncnc(N)c23)cc1 | MAPK9 | cell-free assay, competition with immobilised ligand | 1 µM |  | remaining binding | 96%

Excerpt of the above:
Compound | target | test | setting | how to read | quantity | result
COC(=O)[C@@]1(C)C=C(C(=O)Nc2cccc(C(=O)Nc3ccc(Nc4nccc(-c5cccnc5)n4)c(C)c3)c2)C(=O)CC1 | MAPK9 | enzyme activity, inhibitor, radiometric | 1 µM |  | remaining activity | 7%
CNC(=O)C1CCN(c2cc(C)c(F)cc2NC(=O)c2ccc(-c3cc(O)ccc3C)c(C)c2)CC1 | MAPK9 | binding, competition with immobilised ligand | 1 µM |  | remaining binding | 84%
COc1c(Cl)cccc1Nc1c(-c2ccncc2C#C[C@@]2(C)CCCN2C(=O)/C=C/CN(C)C)[nH]c2c1C(=O)NCC2 | MAPK9 | cell-free assay, competition with immobilised ligand | 3 µM |  | remaining binding | 0%
